Measurements collected from several papers.
Every numbered part comes from another study and shows a few of its results, in no order.
UniProt Q9NRH2, sequence (whole entry, looked up): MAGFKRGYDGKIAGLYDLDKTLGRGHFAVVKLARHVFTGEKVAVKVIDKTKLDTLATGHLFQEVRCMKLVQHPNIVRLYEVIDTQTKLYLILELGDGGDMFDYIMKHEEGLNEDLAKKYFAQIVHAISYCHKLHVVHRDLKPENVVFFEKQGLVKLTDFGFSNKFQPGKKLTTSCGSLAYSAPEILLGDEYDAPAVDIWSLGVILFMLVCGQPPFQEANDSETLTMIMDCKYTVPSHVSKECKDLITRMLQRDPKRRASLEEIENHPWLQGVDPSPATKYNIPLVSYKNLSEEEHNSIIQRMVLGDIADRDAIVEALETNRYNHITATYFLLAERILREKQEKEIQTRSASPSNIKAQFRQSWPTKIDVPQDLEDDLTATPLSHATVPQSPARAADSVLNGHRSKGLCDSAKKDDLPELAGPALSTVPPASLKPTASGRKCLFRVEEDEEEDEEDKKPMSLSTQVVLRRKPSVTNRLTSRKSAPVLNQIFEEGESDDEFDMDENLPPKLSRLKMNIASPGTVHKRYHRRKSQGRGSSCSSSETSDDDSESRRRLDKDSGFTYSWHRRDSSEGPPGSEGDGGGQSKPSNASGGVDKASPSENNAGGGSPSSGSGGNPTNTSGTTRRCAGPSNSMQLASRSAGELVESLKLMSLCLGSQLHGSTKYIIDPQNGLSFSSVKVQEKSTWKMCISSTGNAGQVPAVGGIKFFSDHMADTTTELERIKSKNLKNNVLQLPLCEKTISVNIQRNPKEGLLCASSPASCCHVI
UniProt Q8NG66, sequence (whole entry, looked up): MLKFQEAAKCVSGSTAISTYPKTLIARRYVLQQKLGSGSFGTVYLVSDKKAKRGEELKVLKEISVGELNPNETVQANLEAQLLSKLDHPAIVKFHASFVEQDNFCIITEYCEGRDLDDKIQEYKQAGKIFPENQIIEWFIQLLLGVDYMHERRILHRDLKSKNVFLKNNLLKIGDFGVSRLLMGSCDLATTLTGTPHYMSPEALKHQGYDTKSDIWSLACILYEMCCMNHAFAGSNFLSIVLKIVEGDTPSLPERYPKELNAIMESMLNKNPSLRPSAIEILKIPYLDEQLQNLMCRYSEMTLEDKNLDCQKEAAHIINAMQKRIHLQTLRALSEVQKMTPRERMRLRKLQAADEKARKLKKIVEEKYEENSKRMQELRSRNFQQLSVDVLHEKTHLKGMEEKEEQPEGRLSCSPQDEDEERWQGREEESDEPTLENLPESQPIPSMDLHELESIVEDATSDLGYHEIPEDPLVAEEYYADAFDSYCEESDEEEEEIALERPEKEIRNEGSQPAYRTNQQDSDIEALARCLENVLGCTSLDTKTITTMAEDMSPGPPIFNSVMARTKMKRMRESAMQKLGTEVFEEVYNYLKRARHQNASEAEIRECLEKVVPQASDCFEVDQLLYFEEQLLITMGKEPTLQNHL
UniProt P28482, sequence (whole entry, looked up): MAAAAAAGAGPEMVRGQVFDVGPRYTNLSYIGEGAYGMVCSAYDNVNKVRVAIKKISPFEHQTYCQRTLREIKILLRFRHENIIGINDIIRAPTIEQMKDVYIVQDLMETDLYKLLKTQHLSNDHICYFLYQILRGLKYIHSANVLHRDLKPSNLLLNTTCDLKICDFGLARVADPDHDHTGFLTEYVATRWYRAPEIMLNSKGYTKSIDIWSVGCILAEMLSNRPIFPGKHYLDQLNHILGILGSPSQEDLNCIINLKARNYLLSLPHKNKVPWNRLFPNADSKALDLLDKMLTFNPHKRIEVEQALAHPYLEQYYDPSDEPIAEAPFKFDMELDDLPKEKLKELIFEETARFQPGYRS
UniProt Q16832, sequence (whole entry, looked up): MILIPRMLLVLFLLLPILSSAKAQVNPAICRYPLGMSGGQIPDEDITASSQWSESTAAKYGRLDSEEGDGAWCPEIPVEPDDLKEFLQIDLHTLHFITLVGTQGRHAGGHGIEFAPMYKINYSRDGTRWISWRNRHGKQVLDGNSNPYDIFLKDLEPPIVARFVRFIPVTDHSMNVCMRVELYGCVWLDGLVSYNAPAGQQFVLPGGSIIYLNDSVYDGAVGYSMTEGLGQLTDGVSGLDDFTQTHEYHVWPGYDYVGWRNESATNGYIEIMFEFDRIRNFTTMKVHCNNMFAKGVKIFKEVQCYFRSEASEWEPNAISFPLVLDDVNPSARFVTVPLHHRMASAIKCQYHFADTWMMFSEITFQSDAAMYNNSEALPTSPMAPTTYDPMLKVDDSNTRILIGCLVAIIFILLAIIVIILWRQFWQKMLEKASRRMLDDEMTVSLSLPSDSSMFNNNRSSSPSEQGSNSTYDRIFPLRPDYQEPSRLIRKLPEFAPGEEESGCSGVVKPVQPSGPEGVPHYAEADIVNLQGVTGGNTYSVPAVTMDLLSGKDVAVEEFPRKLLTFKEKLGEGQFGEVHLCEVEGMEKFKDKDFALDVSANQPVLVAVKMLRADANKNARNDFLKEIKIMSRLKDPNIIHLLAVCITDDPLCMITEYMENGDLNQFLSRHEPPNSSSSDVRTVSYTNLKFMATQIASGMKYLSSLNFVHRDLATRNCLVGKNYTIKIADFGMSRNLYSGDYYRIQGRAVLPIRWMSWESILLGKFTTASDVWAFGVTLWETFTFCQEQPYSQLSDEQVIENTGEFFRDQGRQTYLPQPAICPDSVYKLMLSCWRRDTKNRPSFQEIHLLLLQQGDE
UniProt P42681, sequence (whole entry, looked up): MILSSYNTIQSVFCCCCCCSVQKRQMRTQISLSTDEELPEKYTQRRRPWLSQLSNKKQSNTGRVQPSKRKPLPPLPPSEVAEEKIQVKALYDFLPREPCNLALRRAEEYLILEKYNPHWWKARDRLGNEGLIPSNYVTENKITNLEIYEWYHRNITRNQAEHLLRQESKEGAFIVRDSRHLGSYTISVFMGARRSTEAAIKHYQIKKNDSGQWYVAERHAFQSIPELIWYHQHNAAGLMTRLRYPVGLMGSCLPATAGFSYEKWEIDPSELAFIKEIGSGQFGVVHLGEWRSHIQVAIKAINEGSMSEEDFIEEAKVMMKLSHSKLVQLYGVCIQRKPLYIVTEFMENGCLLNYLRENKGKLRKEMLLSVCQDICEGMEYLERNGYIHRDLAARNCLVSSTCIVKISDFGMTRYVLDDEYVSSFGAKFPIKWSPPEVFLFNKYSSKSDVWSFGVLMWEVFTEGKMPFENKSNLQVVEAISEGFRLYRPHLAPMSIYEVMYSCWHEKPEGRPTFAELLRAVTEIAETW
UniProt Q15746, sequence (whole entry, looked up): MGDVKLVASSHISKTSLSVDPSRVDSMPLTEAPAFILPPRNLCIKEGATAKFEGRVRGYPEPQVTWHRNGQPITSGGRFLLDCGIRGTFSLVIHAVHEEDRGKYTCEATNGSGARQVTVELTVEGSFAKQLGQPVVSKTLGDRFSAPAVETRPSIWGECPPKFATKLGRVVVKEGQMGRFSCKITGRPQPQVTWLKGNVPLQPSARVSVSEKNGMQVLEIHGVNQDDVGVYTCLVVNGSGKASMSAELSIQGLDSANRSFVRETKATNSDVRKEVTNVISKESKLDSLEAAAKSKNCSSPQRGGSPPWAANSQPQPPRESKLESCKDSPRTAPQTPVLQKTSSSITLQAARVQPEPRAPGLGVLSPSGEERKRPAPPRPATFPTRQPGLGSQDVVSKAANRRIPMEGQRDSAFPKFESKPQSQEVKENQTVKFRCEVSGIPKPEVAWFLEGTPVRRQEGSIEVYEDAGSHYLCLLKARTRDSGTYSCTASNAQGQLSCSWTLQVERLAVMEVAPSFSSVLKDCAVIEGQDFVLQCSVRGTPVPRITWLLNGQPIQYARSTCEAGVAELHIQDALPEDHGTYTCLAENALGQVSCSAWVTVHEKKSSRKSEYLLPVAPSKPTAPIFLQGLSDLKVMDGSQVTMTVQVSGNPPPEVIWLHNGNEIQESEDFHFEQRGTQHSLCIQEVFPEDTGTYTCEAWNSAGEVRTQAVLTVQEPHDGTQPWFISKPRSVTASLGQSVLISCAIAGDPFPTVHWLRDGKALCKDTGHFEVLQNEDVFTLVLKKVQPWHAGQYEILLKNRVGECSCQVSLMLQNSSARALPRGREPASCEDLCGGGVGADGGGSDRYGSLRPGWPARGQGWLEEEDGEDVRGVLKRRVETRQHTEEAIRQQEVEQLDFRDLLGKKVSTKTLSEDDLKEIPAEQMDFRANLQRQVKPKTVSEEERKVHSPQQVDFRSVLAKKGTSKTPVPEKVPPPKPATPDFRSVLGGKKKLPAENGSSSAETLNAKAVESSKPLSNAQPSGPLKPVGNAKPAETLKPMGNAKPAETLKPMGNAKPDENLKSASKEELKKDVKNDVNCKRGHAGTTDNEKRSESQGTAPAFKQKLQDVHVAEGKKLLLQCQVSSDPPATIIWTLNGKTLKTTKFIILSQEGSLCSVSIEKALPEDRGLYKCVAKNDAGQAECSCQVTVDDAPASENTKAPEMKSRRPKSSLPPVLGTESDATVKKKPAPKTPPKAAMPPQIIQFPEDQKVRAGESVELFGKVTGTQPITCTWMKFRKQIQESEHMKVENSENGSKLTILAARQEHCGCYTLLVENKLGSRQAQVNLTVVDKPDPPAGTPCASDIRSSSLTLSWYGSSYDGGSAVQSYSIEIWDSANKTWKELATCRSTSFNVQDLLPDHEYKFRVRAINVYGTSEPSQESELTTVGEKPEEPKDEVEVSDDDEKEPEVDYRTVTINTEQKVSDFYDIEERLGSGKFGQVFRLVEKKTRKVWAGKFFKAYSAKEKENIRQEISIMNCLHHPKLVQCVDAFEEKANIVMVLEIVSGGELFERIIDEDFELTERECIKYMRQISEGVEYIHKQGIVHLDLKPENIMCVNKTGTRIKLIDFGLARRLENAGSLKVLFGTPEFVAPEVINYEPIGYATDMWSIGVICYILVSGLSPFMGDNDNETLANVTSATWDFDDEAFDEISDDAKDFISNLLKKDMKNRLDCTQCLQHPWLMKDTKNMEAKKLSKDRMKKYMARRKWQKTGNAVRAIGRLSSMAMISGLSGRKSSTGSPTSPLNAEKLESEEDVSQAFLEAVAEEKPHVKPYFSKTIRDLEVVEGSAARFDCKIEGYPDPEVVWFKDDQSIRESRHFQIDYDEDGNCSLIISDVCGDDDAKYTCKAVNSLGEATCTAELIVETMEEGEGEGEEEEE

Series 1
Cell line: mouse MPNST tumor cells
Technique: high-content nuclear imaging
Measured: cell number
Tested at: 10 µM
Time: 12 h
Setting: mean of 2 replicates
Reference: plate mean
Reading: higher = more cells
SMILES | nuclei count [z-score]
CCN(CC)CC(=O)Nc1c(C)cccc1C | 2.16
CCC(CC)(CC(=O)Nc1cccc(/C=C/c2nc(C3CCC3)cs2)c1)C(=O)O | -0.616
C#C[C@]1(O)CC[C@H]2[C@@H]3CCC4=CC(=O)CC[C@@H]4[C@H]3CC[C@@]21C | 0.19
O=C(c1cc2c(s1)CCCCC2)N1CCC(n2c(=O)[nH]c3ccccc32)CC1 | 1.28
CCN(c1ccccc1)c1cc(=NC)n(C)c(C)n1 | -1.04
CCCCCCCCc1ccc(-c2ccc(C(=O)O)cc2)cc1 | -0.213
Nc1nc2c(c(N3CCNCC3)n1)CCC1=C2C2CCCCC2O1 (stereo not shown) | 1.54

Series 2
Cell line: A-375
Tested at: 100 µM
Time: 36 h
Compound | viability [%]
CC(C[N+](C)(C)C)OC(N)=O (stereo not shown) | 106
CC(C)(Oc1ccc(Cl)cc1)C(=O)O | 116
O=C(O)CN(CCN(CC(=O)O)CC(=O)O)CC(=O)O | 91.8
CC(C)NCC(O)COc1ccc(COCCOC(C)C)cc1 (racemic) | 101
COc1ccc(-c2coc3cc(O)ccc3c2=O)cc1 | 96.5
NC(=O)c1cc[n+](CC2=C(C(=O)O)N3C(=O)[C@@H](NC(=O)[C@@H](c4ccccc4)S(=O)(=O)[O-])[C@H]3SC2)cc1 | 95.5
CCn1nc(C(=O)O)c(=O)c2cc3c(cc21)OCO3 | 122

Series 3
SMILES: Cc1cncc2cccc(S(=O)(=O)N3CCCN(C(=O)CN)C[C@@H]3C)c12
Effect on: enzyme activity
Mode: inhibitor
Tested at: 0.5 µM
Reference: control
target | remaining activity [%]
MAPK11 (Homo sapiens, UniProt Q15759) | 101
AKT2 (Homo sapiens, UniProt P31751) | 97.2
NEK3 (Homo sapiens, UniProt P51956) | 91.1
DDR2 (Homo sapiens, UniProt Q16832) | 103
MAPK14 (Homo sapiens, UniProt Q16539) | 110
TLK2 (Homo sapiens, UniProt Q86UE8) | 97.7
TXK (Homo sapiens, UniProt P42681) | 103
CLK3 (Homo sapiens, UniProt P49761) | 95.9
PLK3 (Homo sapiens, UniProt Q9H4B4) | 98.4
MAPK1 (Homo sapiens, UniProt P28482) | 103
Myosin-IIIb (MYO3B, Homo sapiens, UniProt Q8WXR4) | 104
DCLK2 (Homo sapiens, UniProt Q8N568) | 89
CDC42BPB (Homo sapiens, UniProt Q9Y5S2) | 105
MAP2K1 (Homo sapiens, UniProt Q02750) | 94.9

Series 4
Compound: O=C1CCc2cc(Nc3cc(OC4CCOCC4)c([N+](=O)[O-])cc3Cl)ccc2N1
Effect on: cell-free assay
Technique: competition with immobilised ligand
Tested at: 1 µM
target | remaining binding
MAP4K5 (Homo sapiens, UniProt Q9Y4K4) | 87%
NEK11 (Homo sapiens, UniProt Q8NG66) | 100%
SNRK (Homo sapiens, UniProt Q9NRH2) | 100%
EGFR (Homo sapiens, UniProt P00533, G719S) | 100%
MYLK (Homo sapiens, UniProt Q15746) | 94%

Further values, each from its own experiment
Structure (SMILES) | technique | matrix | tested at | setting | measurement | value
Cc1cc2c(C(N)=O)c(N)n(-c3c(C)ccc(O)c3C)c2nc1C | KINOMEscan | 403 non-mutant kinase panel | 1000 nM | percent of control below 1 | number of kinases bound | 9
